Published values pooled from the literature.
Every numbered part comes from another study and shows a few of its results, in no order. Substitutions count along the parent as printed.

Study 1
Target: Fragile X messenger ribonucleoprotein 1, C-terminal low-complexity region (Fmr1, Mus musculus, UniProt P35922)
Method: RNA Bind-n-Seq
Form: RNA
Matrix: in vitro
Concentration: 200 nM
Setting: whole 134-nt RNA, ends assumed
Added: 150 mM KCl
Baseline: input library
Reading: higher = stronger binding
Shared flanks, not repeated: GGGAGUUCUACAGUCCGACGAUC … UGGAAUUCUCGGGUGUCAAGG
With `UCCUGUGCUACACAUCGUAUGUACCGAAUCGGGGUUUUUGGGGAAAAAGGGGAAAGGGGAAAGUAUUAUGUUACGCCGUUCGGAUCUGCA` the log2 enrichment was 0.712.
`AAGUCCUGUGCUACACAUCGUAUGUACCGAAUCGGGGAAAAAGGGGUGGGGUGGGGAAAGUAUUAUGUUACGCCGUUCGGAUCUGCACUU` has a log2 enrichment of 1.03.
`UAACUUUAGAGGAGGAUCUGAUGGAUAUGGCAGUGGACGUGGAUUUGGGGUUGGCUAUAAUGGGUAUGGAGGAGGACCUGGAGGUGGCAA` has a log2 enrichment of 0.228.
`UGGCCCUGGUGGCAUGCGGGGAGGAAGAGGUGGCCUCAUGGAUCGUGGUGGUGCCGGUGGAAUGUUCAGAGGUGGCCGUGGUGGAGACAG` gave a log2 enrichment of 0.118.
For `CCUGUGCUACACAUCGUAUGUACCGAAUCGGGGCCCCCCGGGCCCCCCGGGGCCCCCCGGAAAGUAUUAUGUUACGCCGUUCGGAUCUGC`, the log2 enrichment was -0.736.
`CUGUGCUACACAUCGUAUGUACCGAAUCGGGCCCCCCCGGCCCCCCCGGGCCCCCCCGGGGAAAGUAUUAUGUUACGCCGUUCGGAUCUG` gave a log2 enrichment of -1.11.
`CAAGUCCUGUGCUACACAUCGUAUGUACCGAAUCGGUGGUUUUUUUGGAAAAAGGAAAGUAUUAUGUUACGCCGUUCGGAUCUGCACUUC` has a log2 enrichment of -0.623.
`CACAGACAACACGCACCCACACAGACACAGAGGGAAGGGGUUCGGAUGGGGACAGGGUGCACAGCAGGGCGGGGUAGGACCCCAGCCCCU` has a log2 enrichment of 1.16.
With `UGUAACCUGGGGAUUCUCUCAACUCUCUUGUCCCACACAGACUUCUAUGAGGAAAUCCAGGAGUUUGUGAAAGAUGUCUUUUCACCUAUA` the log2 enrichment was 0.174.

Study 2
Target: RNA binding protein fox-1 homolog 2, RRM domain, GST-SBP tag (RBFOX2, Homo sapiens, UniProt O43251-10, residues 100-194)
Method: RNA Bind-n-Seq
Form: RNA
Matrix: in vitro
Concentration: 365 nM
Setting: natural RNA segment, single round, ends assumed
Baseline: no-protein control
Reading: higher = stronger binding
Shared flanks, not repeated: GGGAGUUCUACAGUCCGACGAUC … UGGAAUUCUCGGGUGCCAA
Construct (chain): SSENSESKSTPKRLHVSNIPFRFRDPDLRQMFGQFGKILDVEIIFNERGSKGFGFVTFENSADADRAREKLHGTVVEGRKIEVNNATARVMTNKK
Under “RBNS enrichment (R)”, `UCUGCCUCCUUGCCUGCCUACAAGGUGCCUGGUUUGCAGCAGGCUCUCCGCUCUUUCCAGCAAAGCUGCUCAGAGAGGGUGUCCAGCACAGUGGAGAGGCCGGAAGUGAG` is recorded as 0.68.
`AAAGGAAAAGAACACUAGCUAAGGAAGGGAAAGGGAAGUGAUAUCAUAAAAGUAGCAACCUUCAUUUUACAUUCUGUCUGUUUUUCUUUUUUUGCUUUGUUUUGUUUGUG`: “RBNS enrichment (R)” 0.328.
For `AAGACCCCAAAGGGCCCAGGCCAGGAGACUGUUAAAGUGAAAAGGCAAUCUAUGACUCACCUUGCUCUGCCAUCCCUGGCAGCCCCCACCGGUGUCCUGUUCCUGCCACA`, “RBNS enrichment (R)” read 0.172.
`CUAUGCCUCAGAAACUUCCUGGGAGUAAAUAUGGGAACAACUUUUCUAUUAAUACAUCUAAAUUUUCUAGUAUAUCCUGACAUUUUCCAUUCCUGCUCUGAAGUCACUUU`: “RBNS enrichment (R)” 0.665.
`GGGUGUGUCCCAAGGGCACUUGACUCCCGUUUGUGCUUGAGUAUCAGGAAUACCAAAGGGCCCAGGGUGCUCCUACUUGAAUUAUCUCACUGUCUGCUUUUCAAUCACUA` — result for “RBNS enrichment (R)”: 0.909.
Under “RBNS enrichment (R)”, `AUGGAAGAGAAGAGAAGAAUGAUAGGGAUGACCUGGGGUGGGGGGACAGCAAAACAUCUUAAAUGAUGACUGUAGUUAAUCAGAUGUGACCCCUCUAGGGCCCCUGGUUG` is recorded as 0.863.
Under “RBNS enrichment (R)”, `UGUUGUCGUCGUUGUUUUGAGACGGAGUCUUGCUCAGGUGCCCCGGAGUGCAGUGGUGCAAUCUCAGCUCACUGCAACCUCCACCUCCUGGGUUCAAGCAAUUCUCCUGC` is recorded as 0.409.
Under “RBNS enrichment (R)”, `CGUCUGACCUUUCUCUCUGCACUUAGGAUUGGUGUCCACUUGUAGAUUUCUUUCAACACAGUAUAAGAAUGUGAUAUAUUGUAUAUUGGAAAGUAUUUACCUUAUUUAUA` is recorded as 24.2.

Study 3
Target: Sal-like protein 4, full length isoform B (SALL4, Homo sapiens, UniProt Q9UJQ4-2, residues 1-616)
Method: universal PBM
Form: double-stranded DNA, one strand shown
Matrix: in vitro
Concentration: not given
Setting: 8-mer, flanks averaged, mean of replicates
Reading: higher = stronger binding
For `AACACTTA`, the E-score was 0.214.
With `CGAACTGA` the E-score was -0.0909.
For `CAAGCGCC`, the E-score was -0.231.
`CTTGCTTC` gave an E-score of 0.0132.
`CAGGCAGG` gave an E-score of -0.168.
The E-score of `AGCATCAT` is reported as 0.136.
With `CACGAGGC` the E-score was -0.176.
`GTACCAAA` gave an E-score of 0.0684.
`AATACCTG` gave an E-score of 0.0767.
`AGCTTTTC` has an E-score of 0.0219.
The E-score of `AGCTGGTC` is reported as -0.094.
The E-score of `ATGTACCA` is reported as 0.14.
The E-score of `ATGCTGAA` is reported as 0.0782.
For `CTAAATGA`, the E-score was 0.161.
For `AGGACTCC`, the E-score was -0.218.
`AGGTCAGA` has an E-score of -0.123.
`CCATTCTC` has an E-score of -0.0912.

Study 4
Target: CCNB2, cyclin fold, Cln2 fusion (human)
Method: yeast growth competition, sequencing
Matrix: yeast
Setting: weak parent motif
Baseline: not given
Reading: higher = stronger binding
Starting sequence: GMNC docking peptide (human); KNAKRNLSSEFAN; partner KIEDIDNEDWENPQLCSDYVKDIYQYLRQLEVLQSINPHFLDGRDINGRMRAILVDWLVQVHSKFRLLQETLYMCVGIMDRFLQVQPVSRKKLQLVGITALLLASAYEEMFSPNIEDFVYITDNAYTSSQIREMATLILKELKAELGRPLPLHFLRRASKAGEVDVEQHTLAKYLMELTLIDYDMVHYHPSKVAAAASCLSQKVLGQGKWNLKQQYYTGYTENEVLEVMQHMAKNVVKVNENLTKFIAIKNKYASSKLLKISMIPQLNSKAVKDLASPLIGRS
`A3V` — result for “normalised enrichment score”: 1.59.
For `F11G`, “normalised enrichment score” read 0.566.
`A3L` — result for “normalised enrichment score”: 1.4.
For `F11A`, “normalised enrichment score” read 0.802.
Under “normalised enrichment score”, `E10F` is recorded as -0.038.
`K4G`: “normalised enrichment score” 0.196.
For `N6Q`, “normalised enrichment score” read 0.385.
`L7H` — result for “normalised enrichment score”: 0.512.
For `A12T`, “normalised enrichment score” read 0.363.
`A12F`: “normalised enrichment score” 0.498.
For `K4L`, “normalised enrichment score” read 0.464.
`L7S`: “normalised enrichment score” 0.123.
For `K4A`, “normalised enrichment score” read 0.266.
`R5M` — result for “normalised enrichment score”: 0.0198.
`R5E`: “normalised enrichment score” 0.313.
`N2F`: “normalised enrichment score” 0.694.
For `A3R`, “normalised enrichment score” read 0.368.
`S9E` — result for “normalised enrichment score”: -0.172.
For `F11S`, “normalised enrichment score” read 0.526.
`R5C`: “normalised enrichment score” 0.137.
Under “normalised enrichment score”, `A12V` is recorded as -0.0978.
`N6A` — result for “normalised enrichment score”: 0.388.
Under “normalised enrichment score”, `E10V` is recorded as 0.295.
`N2I`: “normalised enrichment score” 0.904.
`N6V`: “normalised enrichment score” 0.17.

Study 5
Target: Protein max, full length (MAX, Homo sapiens, UniProt P61244-2, residues 1-151)
Method: protein-binding microarray
Form: double-stranded DNA, one strand shown
Matrix: in vitro
Concentration: not given
Setting: k-mer, scored over probes, only values ≥0.25
Reading: higher = stronger binding
For `AGCATGGC`, the E-score was 0.426.
`ACACGCTG` gave an E-score of 0.442.
`AAGCATGA` gave an E-score of 0.397.
`ACACAGCA` gave an E-score of 0.265.
For `AAACATGC`, the E-score was 0.36.
With `ACTCCACG` the E-score was 0.334.
The E-score of `ATTACACG` is reported as 0.265.
With `ACATGAGG` the E-score was 0.417.
`GGTGGCGA` has an E-score of 0.279.
For `CGTGCCCC`, the E-score was 0.335.
For `CGTGATTA`, the E-score was 0.398.
`GCTGGCAC` gave an E-score of 0.252.
`GTGCGTGA` has an E-score of 0.33.
`CACATTGA` gave an E-score of 0.262.
For `ACCCACGG`, the E-score was 0.28.
`CGTGCTGA` has an E-score of 0.404.
For `ACTCGTGA`, the E-score was 0.409.

Single results of other studies
For `PhoQ, residues 284 288 289 292 302 303 TTCLQL`, the fold induction was 2 (PhoP, residues 12 14 15 18 19 NHFIF (Escherichia coli, UniProt P23836); Sort-seq, refers to: YFP reporter; E. coli; PhoQ-PhoP variant library, added: 10 µM Mg2+; baseline: high Mg2+ state, higher = stronger signaling).

Some of these lines once more (study 5):
`GGTGGCGA` has an E-score of 0.279.
For `CGTGCCCC`, the E-score was 0.335.
For `CGTGATTA`, the E-score was 0.398.
`GCTGGCAC` gave an E-score of 0.252.
`GTGCGTGA` has an E-score of 0.33.
`CACATTGA` gave an E-score of 0.262.
For `ACCCACGG`, the E-score was 0.28.
